Experimental data of several laboratories.
Numbered parts are unrelated; each lists some results of a single study.

Set 1 — technique: RNAcompete; form: RNA; sample: in vitro; tested at: 20 nM; setting: 7-mer, probes averaged, single round; relative to: mean of 7-mers; direction: higher = stronger binding; endpoint: 7-mer Z-score
Target: PABPC1L2, full length, GST fusion (mouse, UniProt A0ABA7IW68)
Target sequence (chain): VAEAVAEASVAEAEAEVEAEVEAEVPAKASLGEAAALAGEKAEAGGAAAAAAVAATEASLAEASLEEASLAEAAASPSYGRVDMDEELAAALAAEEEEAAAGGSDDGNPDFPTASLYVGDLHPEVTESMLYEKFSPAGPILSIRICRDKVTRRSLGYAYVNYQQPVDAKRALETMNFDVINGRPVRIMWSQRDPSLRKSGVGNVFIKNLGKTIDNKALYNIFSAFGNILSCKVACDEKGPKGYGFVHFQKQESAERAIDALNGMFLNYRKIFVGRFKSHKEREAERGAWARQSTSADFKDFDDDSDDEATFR
CUCGUGC: -0.293
UUCGUGG: -0.306
GUACAUU: -0.122
GUACGCU: -0.208
UGUUCGA: -0.266
CAAGAUG: 0.0696
CUUUCGC: -0.34
UAUUACG: -0.119
ACGAAGU: 0.0533
GUGUACA: 0.0841
UGUAUAG: -0.197
CUUCUUC: -0.458
UAGACCA: -0.0428
GUUAUUA: -0.166
GUGCGAU: -0.142
ACUCCGG: -0.0935
CGAGUUG: -0.213
UCGUGUU: -0.51
ACUCCUG: -0.246
GACCCCC: -0.494
ACAGAGU: -0.0319
CAGUCGA: 0.0189
UGUCGCU: -0.264
CGAAAGG: 0.0696
AUCCGAU: -0.242

Set 2 — technique: protein binding microarray; form: double-stranded DNA, one strand shown; sample: in vitro; tested at: not given; relative to: not given; direction: higher = stronger binding; endpoint: E-score
Target: Histone acetyltransferase KAT6A, both winged helices, GST fusion (KAT6A, Homo sapiens, UniProt Q92794, residues 1-181)
Setting: 8-mer, flanks averaged, mean of 2 arrays, mostly near background
Residues (chain): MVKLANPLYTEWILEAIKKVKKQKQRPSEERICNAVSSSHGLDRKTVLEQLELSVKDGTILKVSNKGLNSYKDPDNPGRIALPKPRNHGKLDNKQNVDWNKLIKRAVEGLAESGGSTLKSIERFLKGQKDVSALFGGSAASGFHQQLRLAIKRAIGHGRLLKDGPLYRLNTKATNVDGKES
CCAAAAGA: -0.21
ACGCGGTA: 0.296
ATAACGTA: -0.0741
AATGAGCC: -0.0696
GGATTCCA: -0.0356
CAATGCTG: -0.106
ATGGCCCA: -0.196
ACCCGGTA: 0.188
CGTGGATC: -0.0266
GATCGGGA: 0.0407
ACCTCTAT: -0.0416
CTAAGCCA: -0.26
AATGCGAC: 0.2
CATGAGGA: -0.0022
CGTGCGCA: 0.3
ATCGTACC: -0.0959
AAGTCCAA: -0.108
ATAAGTTC: -0.0178
GATACACC: 0.111
TGGAGCAA: -0.0768
GCAACCTA: -0.114
ACAACCAT: -0.0688
CACTTACA: -0.0104
ACGATCAT: -0.05
CTATTAGC: -0.00217

Set 3 — technique: RNA Bind-n-Seq; form: RNA; sample: in vitro; tested at: 1 µM; setting: whole 134-nt RNA, ends assumed; added: 150 mM KCl; relative to: input library; direction: higher = stronger binding; endpoint: log2 enrichment
Target: Ras GTPase-activating protein-binding protein 1, RRM domain (G3BP1, Homo sapiens, UniProt Q13283)
Chain of UniProt Q13283 (whole entry, looked up): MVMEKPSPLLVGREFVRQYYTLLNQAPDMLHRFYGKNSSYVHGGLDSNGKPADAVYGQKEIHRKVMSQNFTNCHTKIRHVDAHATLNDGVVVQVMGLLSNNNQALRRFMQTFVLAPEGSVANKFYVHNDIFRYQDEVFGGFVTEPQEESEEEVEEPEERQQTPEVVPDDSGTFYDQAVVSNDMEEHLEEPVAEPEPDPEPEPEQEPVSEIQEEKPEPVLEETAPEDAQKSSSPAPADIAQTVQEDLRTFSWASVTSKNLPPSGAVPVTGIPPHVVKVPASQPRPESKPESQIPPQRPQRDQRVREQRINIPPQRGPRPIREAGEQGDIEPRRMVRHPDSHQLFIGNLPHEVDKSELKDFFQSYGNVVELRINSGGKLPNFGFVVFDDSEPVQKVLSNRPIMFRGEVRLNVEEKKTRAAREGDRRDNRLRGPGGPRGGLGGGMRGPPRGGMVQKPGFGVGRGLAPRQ
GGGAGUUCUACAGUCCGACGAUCUGGGAGGUGGAUUUUGUUUAUUUUUUUAGCUCAUUUCCAGGGGUGGGAAUUUUUUUUUAACAUGUGUCAUGAAUAAAGUUGUUUUUGAAAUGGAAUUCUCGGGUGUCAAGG: 1.69
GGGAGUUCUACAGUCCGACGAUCUGGCGCUGGUGGCAUGCGGGGAGGAAGAGGUGGCCUCAUGGAUCGUGGUGGUCCCGGUGGAAUGUUCAGAGGUGGCCGUGGUGGAGACAGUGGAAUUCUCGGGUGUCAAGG: 0.355
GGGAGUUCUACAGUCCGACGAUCCACAGACAACACGCACCCACACAGACACAGAGGGAAGGGGUUGGGAUGGGGACAGGGUGCACAGCAGAGCGGGGUAGGACCCCAGCCCCUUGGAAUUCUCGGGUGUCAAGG: -0.21
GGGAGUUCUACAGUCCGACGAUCAGUCCUGUGCUACACAUCGUAUGUACCGAAUCGGGGUUUUUGGUUUUUGGGUUUUUGGAAAGUAUUAUGUUACGCCGUUCGGAUCUGCACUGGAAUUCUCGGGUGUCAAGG: -0.198
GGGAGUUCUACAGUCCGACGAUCGUCCUGUGCUACACAUCGUAUGUACCGAAUCAAACCCCCAAACCCCCAAAUUUUUAAAAAAGUAUUAUGUUACGCCGUUCGGAUCUGCACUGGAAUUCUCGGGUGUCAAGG: -0.19
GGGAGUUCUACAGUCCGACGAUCUCCUGUGCUACACAUCGUAUGUACCGAAUCGGGCCCCCCGGCCCCCCGGGGCCCCCCGGGAAAGUAUUAUGUUACGCCGUUCGGAUCUGCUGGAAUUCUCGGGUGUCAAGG: -0.414
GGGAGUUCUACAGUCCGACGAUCCAAGUCCUGUGCUACACAUCGUAUGUACCGAAUCGGGGAAAGGAAAGGGAAAGGGGAAAGUAUUAUGUUACGCCGUUCGGAUCUGCACUUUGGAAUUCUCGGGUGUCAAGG: 0.0865
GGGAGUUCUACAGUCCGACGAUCCACAGACAACACGCACCCACACAGACCCAGAGGGAAGGGGUUGGGAUGGGGACAGGGUGCACAGCAGGGCGGGGUAGGACCCCAGCCCCUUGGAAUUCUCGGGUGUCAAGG: 0.779
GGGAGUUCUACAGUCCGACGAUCGAAGAUUGGCUUAAAAUGGCUACUGUGAUGGGAACAGUGUCUUAGGGAGAUGCAGCUUGGACUUGAGGUAAAUUGAAUACUUUACAACUGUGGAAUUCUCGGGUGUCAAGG: -0.093
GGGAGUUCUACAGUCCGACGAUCUCAAGUCCUGUGCUACACAUCGUAUGUACCGAAUCGGAAAAAAAGGUUUGGAGGAAAGUAUUAUGUUACGCCGUUCGGAUCUGCACUUCCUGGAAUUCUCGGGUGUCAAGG: -0.206

Set 4 — technique: RNA Bind-n-Seq; form: RNA; sample: in vitro; tested at: 365 nM; relative to: no-protein control; direction: higher = stronger binding; endpoint: RBNS enrichment (R)
Target: RNA binding protein fox-1 homolog 2, RRM domain, GST-SBP tag (RBFOX2, Homo sapiens, UniProt O43251-10, residues 100-194)
Setting: natural RNA segment, single round, ends assumed
Construct (chain): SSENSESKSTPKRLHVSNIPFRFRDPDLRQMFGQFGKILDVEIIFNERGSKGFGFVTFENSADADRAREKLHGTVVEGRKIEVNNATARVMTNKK
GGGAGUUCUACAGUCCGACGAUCUCUCUCCUUAGGGAGCUCGAGUCCUGGUGGGGAGAACAGGAGUAAACAAGGACUUGACAAAGCUGAAGAGUUAUCAGUCCUUUGACAAGGACAGGUGGGGCAGGGAGCAAUGGAAUUCUCGGGUGCCAA: 0.555
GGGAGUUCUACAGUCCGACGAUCCAAAGUUGGAUGGGCAGGUGCAGACGAGGCCCAGCCUUCAUCCUGCUUUCCCUCGCAAGCCCUUCUAUAGCUCCCAGCCCACGGGAGAGGCCAUGAGGAGCGCGAGGUCGUGGAAUUCUCGGGUGCCAA: 0.185
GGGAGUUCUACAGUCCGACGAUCUGCCUUCUUCCAGGAUCAGGGGUUAGGGUGCAAGAAGCCAUUUAGGGCAGCAAAACAAGUGACAUGAAGGGAGGGUCCCUGUGUGUGUGUGUGCUGAUGUUUCCUGGGUGUGGAAUUCUCGGGUGCCAA: 0.976
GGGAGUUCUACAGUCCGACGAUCCUUCAGUGUGGCAAAGGAGUAGUGUAGUUCCCUCCACAGGCCCUGUCGUAAUAAAAGCCUCAGUGCAGCUUCUUCCUGCAGUUCACAUCUUGAUGCUAGGAUGCUCCUGGUGGAAUUCUCGGGUGCCAA: 0.348
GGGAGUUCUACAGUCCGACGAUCUAAAAAGCUUUUAUAUGAGACAGACAAGUCCCUGAGUUCCAGGCCAGCCUUGGUGGCAAGUCACUAGGAAACUUCAAGGUCUGUCUCAUCUUUAUUUUACUGUGUGCCCCUGGAAUUCUCGGGUGCCAA: 0.41
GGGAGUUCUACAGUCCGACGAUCGACAGCAGUCUUUUUUUUUAAUUUAAAAAAAAAAAGAUAUAUUAACAGUUUUAGAAGUCAGUAGAAUAAAACCUUAAAGCGUUCUUAUAAUAUGGCAUCUUUCGAUUUCUUGGAAUUCUCGGGUGCCAA: 0.537
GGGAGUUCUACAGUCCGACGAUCCGGAAGUCGCUCUCCUGGGAGGCAAUGAGCAUUGCCGUAUAGGUUCCUGUUUAUUAGAGAGUAUGCUAAUAAAAGUCCUUGUAAUAGCUCACAGCCACCUAAGUGCGCGGUGGAAUUCUCGGGUGCCAA: 0.428
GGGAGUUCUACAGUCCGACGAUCCCCCAGUAAGAAGCCAAGGUACAACUCAUUGUACCUACGAGGUACAAACUCAUUUGUAGAAACAAAGUAACUAGAUAUUCCUAUUGAAAUAAGAAUAGAUAUAUUGGUGGUGGAAUUCUCGGGUGCCAA: 0.343
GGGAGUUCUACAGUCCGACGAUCUGCAGAUGAGAUCUGUACUAUAGUCUACAAUUUGUAUCCUGUCUCUCCCACCACCCCCGGCAGUGUCCAGACAGGAGAGCAGAUGCCACUCUCCCCUUUUACCAUGACCUUGGAAUUCUCGGGUGCCAA: 0.324
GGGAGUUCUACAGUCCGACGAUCUAAAUCACUUAUAGCUAUAUUUUACUACAAAAAUUCUGUAUAAAGAUAUAUUUAAAUAUUUUAGAGAAAUUUAAGUUACUCCUUAUGAAAUGUUUAAUUUCAGUUACUGUUGGAAUUCUCGGGUGCCAA: 0.631
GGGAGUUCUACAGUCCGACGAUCCAUCAUAAGGAAAAACUUUUAUCGCAAUGAUAGUCAGUUCACAUUAGUUUAGCACUAUAGAUAGUAUUCAGAAAUUGCUUUCUCUUUGGUAAAGAAGAUAAAUAGGUGAAUGGAAUUCUCGGGUGCCAA: 0.506
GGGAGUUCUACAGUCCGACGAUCCAGCCUCCACCUCGCCGCUGGGGGACCAACAGGUUGCUUACAGCUUUGCACCCCGGCAUCAGCACAGGGGUCCCUGCCCCACCCUCCGGCAGCUCAGGGAGUGUUUUCCUUGGAAUUCUCGGGUGCCAA: 0.249

Repeated from above (set 1):
CAAGAUG: 0.0696
CUUUCGC: -0.34
UAUUACG: -0.119
ACGAAGU: 0.0533
GUGUACA: 0.0841
UGUAUAG: -0.197
CUUCUUC: -0.458
